Measured values from different studies.
Protocols differ between the studies behind these lines.
PIK3CB with p85 alpha: Phosphatidylinositol 4,5-bisphosphate 3-kinase catalytic subunit beta isoform, with p85 alpha (PIK3CB, Homo sapiens, UniProt P42338)
PIK3CB: Phosphatidylinositol 4,5-bisphosphate 3-kinase catalytic subunit beta isoform (PIK3CB, Homo sapiens, UniProt P42338)

| Structure (SMILES) | target | assay | test system | conditions | scale | measurement | value |
| --- | --- | --- | --- | --- | --- | --- | --- |
| C=CC(=O)Nc1cc(Nc2nccc(Nc3cc(Cl)c(F)cc3C(C)(C)O)n2)c(OC)cc1N1CC[C@@H](N(C)C)C1 | PIK3CB with p85 alpha | kinase activity, inhibitor | – | 1 µM | – | inhibition | -1% |
| CC[C@@H]1[C@H](F)C(=O)N[C@@H]1COc1nccc2cc(C(N)=O)c(OC)cc12 | PIK3CB | ATP-site probe binding, ActivX profiling | THP-1 cell lysate | 0.01 mM | – | inhibition | -2.4% |
| COc1ccc(F)cc1C(=O)NCc1ccc(-c2nn([C@@H](C)C(F)(F)F)c(N)c2C(N)=O)cc1 | PIK3CB | target engagement, competitive chemoproteomics | human PBMCs | 0.1 µM | – | inhibition | -4.7% |
| Cc1nc(NC(=O)N2CCC[C@H]2C(N)=O)sc1-c1ccnc(C(C)(C)C(F)(F)F)c1 | PIK3CB | KINOMEscan | – | 10 µM | – | remaining binding | 2.9% |
| COc1cc(-c2cncc3c2CN(C)Cc2cc(N4CCNCC4)ccc2-3)cc(OC)c1OC | PIK3CB with p85 alpha | kinase activity | – | 1 µM, p110b/p85a)(h human, together with: ATP 10 µM | relative to: DMSO | remaining activity | 94% |
| CS(=O)(=O)Nc1cccc(-c2csc(NC(=O)CSc3nc4nccnc4c(=O)n3CCc3ccccc3)n2)c1 | PIK3CB with p85 alpha | kinase activity, inhibitor | – | 10 µM, together with: PIK3R1 complex | – | inhibition | 7% |
| Cc1ccc(NC(=O)c2ccc(C)c(C(F)(F)F)c2)cc1C#Cc1nn(C2CCC(O)CC2)c2ncnc(N)c12 (stereo not drawn) | PIK3CB with p85 alpha | – | – | 10 µM, together with: 10 µM ATP | – | remaining activity | 78% |
| CN1CC(Oc2cnc(C#N)cc2-c2ccn3nc(NC(=O)C4CC4)cc3c2)C1 | PIK3CB with p85 alpha | inhibitor, KinaseProfiler panel | – | 1 µM | – | inhibition | -2% |
| O=C(CSc1nc2nccnc2c(=O)n1CCc1ccccc1)Nc1nccs1 | Phosphatidylinositol 4,5-bisphosphate 3-kinase catalytic subunit beta isoform, with p85 beta (PIK3CB, Homo sapiens, UniProt P42338) | kinase activity, inhibitor | – | 10 µM, together with: PIK3R2 complex | – | inhibition | 8% |

Some of these lines once more:
| Structure (SMILES) | target | assay | test system | conditions | scale | measurement | value |
| --- | --- | --- | --- | --- | --- | --- | --- |
| CS(=O)(=O)Nc1cccc(-c2csc(NC(=O)CSc3nc4nccnc4c(=O)n3CCc3ccccc3)n2)c1 | PIK3CB with p85 alpha | kinase activity, inhibitor | – | 10 µM, together with: PIK3R1 complex | – | inhibition | 7% |
